Experimental data pooled from the literature.
Each line is one published result; not all experiments were run side by side. ± gives the spread as reported.
Cell line: PC-3

CSCC[C@H](NC(=O)[C@H](CC(C)C)NC(=O)[C@H](Cc1c[nH]cn1)NC(=O)CNC(=O)[C@@H](NC(=O)[C@H](C)NC(=O)[C@H](Cc1c[nH]c2ccccc12)NC(=O)[C@H](CCC(N)=O)NC(=O)CCCCCCCNC(=O)[C@@H](CCCCNC(=O)Cn1ccnc1[N+](=O)[O-])NC(=O)[C@@H](CCCCNC(=O)Cn1ccnc1[N+](=O)[O-])NC(=O)[C@@H](CCCCNC(=O)Cn1ccnc1[N+](=O)[O-])NC(=O)CN1CCN(CC(=O)O)CCN(CC(=O)O)CCN(CC(=O)O)CC1)C(C)C)C(N)=O [indium-111 labelled] — hypoxia enhancement factor (8 h; reference: hypoxic over normoxic): 3.29 ± 0.25
CC/C=C\C/C=C\C/C=C\C/C=C\C/C=C\C/C=C\CCC(=O)Nc1ccn(C2OC(CO)C(O)C2(F)F)c(=O)n1 (stereo not shown) — CC50 (NCI60 screen): 67.8 µM
[Cl][Au-][P+](c1ccccc1)(c1ccccc1)c1cc[cH-]c1.[Cl][Au-][P+](c1ccccc1)(c1ccccc1)c1cc[cH-]c1.[Cl][Ti+2][Cl] — IC50 (cell growth or viability, XTT): 18.9 µM
CCC[P+](c1ccccc1)(c1ccccc1)c1ccccc1 — GI50 (cell growth or viability, MTT; 72 h): 1.83 µM
CSCC[C@H](NC(=O)[C@H](CC(C)C)NC(=O)[C@H](Cc1c[nH]cn1)NC(=O)CNC(=O)[C@@H](NC(=O)[C@H](C)NC(=O)[C@H](Cc1c[nH]c2ccccc12)NC(=O)[C@H](CCC(N)=O)NC(=O)CCCCCCCNC(=O)[C@@H](CO)NC(=O)[C@@H](CO)NC(=O)[C@@H](CO)NC(=O)CN1CCN(CC(=O)O)CCN(CC(=O)O)CCN(CC(=O)O)CC1)C(C)C)C(N)=O [indium-111 labelled] — retained internalized radioactivity (concentration not given, 8 h, normoxia): 34.8%
O=C(O)CCC(NP(=O)(O)OCCC[C@@H](NC(=O)CCC(NC(=O)CCCCCNC(=O)c1ccc([18F])cc1)C(=O)O)C(=O)O)C(=O)O (stereo partly shown) — cell uptake (1 h): 0.04 ± 0.01%
CCCc1cc(OC)c2c(c1)OCO2 — GI50 (cell growth or viability, MTT; 72 h): > 250 µM
CSCC[C@H](NC(=O)[C@H](CC(C)C)NC(=O)[C@H](Cc1c[nH]cn1)NC(=O)CNC(=O)[C@@H](NC(=O)[C@H](C)NC(=O)[C@H](Cc1c[nH]c2ccccc12)NC(=O)[C@H](CCC(N)=O)NC(=O)CNC(=O)[C@H](CO)NC(=O)CNC(=O)CCCCCCCNC(=O)CCC(=O)Nc1ccc(CNC23CNCCNCC(N)(CNCCNC2)CNCCNC3)cc1)C(C)C)C(N)=O [copper-64 labelled] — internalization (15 min; reference: internalization at 2 h): 43%
CCCCCCCCCCCCCCCC[P+](c1ccccc1)(c1ccccc1)c1ccccc1 — GI50 (cell growth or viability, MTT; 72 h): 0.25 µM
Cc1nn(-c2ccccc2)c(O)c1C(c1ccccc1O)c1c(C)nn(-c2ccccc2)c1O — IC50 (cell growth or viability, MTT; 48 h): > 40 µM
CCCc1cc(OC)c(OC)c(OC)c1OC — GI50 (cell growth or viability, MTT; 72 h): > 250 µM
O=C(O)CCC(NP(=O)(O)OCCC[C@@H](NC(=O)CCC(NC(=O)CCCCCNC(=O)CCCCCNC(=O)c1ccc([18F])cc1)C(=O)O)C(=O)O)C(=O)O (stereo partly shown) — cell uptake (2 h): 0.15 ± 0.01%
Cc1nn(-c2ccccc2)c(O)c1C(c1ccccc1[N+](=O)[O-])c1c(C)nn(-c2ccccc2)c1O — IC50 (cell growth or viability, MTT; 48 h): > 40 µM
C=CCc1cc2c(c(OC)c1OC)OCO2 — GI50 (cell growth or viability, MTT; 72 h): > 250 µM
O=C(O)CCC(NP(=O)(O)OCCC[C@@H](NC(=O)CCC(NC(=O)c1ccc([18F])cc1)C(=O)O)C(=O)O)C(=O)O (stereo partly shown) — cell uptake (1 h): 0.18 ± 0.13%
COc1cc(C)c(OC)c2c1OCO2 — GI50 (cell growth or viability, MTT; 72 h): > 250 µM
CSCC[C@H](NC(=O)[C@H](CC(C)C)NC(=O)[C@H](Cc1c[nH]cn1)NC(=O)CNC(=O)[C@@H](NC(=O)[C@H](C)NC(=O)[C@H](Cc1c[nH]c2ccccc12)NC(=O)[C@H](CCC(N)=O)NC(=O)CCCCCCCNC(=O)[C@@H](CO)NC(=O)[C@@H](CO)NC(=O)[C@@H](CCCCNC(=O)Cn1ccnc1[N+](=O)[O-])NC(=O)CN1CCN(CC(=O)O)CCN(CC(=O)O)CCN(CC(=O)O)CC1)C(C)C)C(N)=O [indium-111 labelled] — retained internalized radioactivity (concentration not given, 8 h, hypoxia): 60.7%
CCCNC(=O)[C@H](CC(C)C)NC(=O)[C@H](Cc1c[nH]cn1)NC(=O)CNC(=O)[C@@H](NC(=O)[C@H](C)NC(=O)[C@H](Cc1c[nH]c2ccccc12)NC(=O)[C@H](CCC(N)=O)NC(=O)[C@@H](Cc1ccccc1)NC(=O)CCCCCNC(=O)CN1CCN(CC(=O)O)CCN(CC(=O)O)CCN(CC(=O)O)CC1)C(C)C [indium-111 labelled] — maximum internalization (45 min, 37 °C): 14%
CSCC[C@H](NC(=O)[C@H](CC(C)C)NC(=O)[C@H](Cc1c[nH]cn1)NC(=O)CNC(=O)[C@@H](NC(=O)[C@H](C)NC(=O)[C@H](Cc1c[nH]c2ccccc12)NC(=O)[C@H](CCC(N)=O)NC(=O)CCCCCCCNC(=S)Nc1ccc(C[C@H]2CN(CC(=O)O)CCN(CC(=O)O)CCN2CC(=O)O)cc1)C(C)C)C(N)=O [copper-64 labelled] — maximum internalization (1 nM, 37 °C): 896 fmol/mg
Cc1ccc(C(c2c(C)nn(-c3ccccc3)c2O)c2c(C)nn(-c3ccccc3)c2O)cc1 — IC50 (cell growth or viability, MTT; 48 h): 28.5 µM
CSCC[C@H](NC(=O)[C@H](CC(C)C)NC(=O)[C@H](Cc1c[nH]cn1)NC(=O)CNC(=O)[C@@H](NC(=O)[C@H](C)NC(=O)[C@H](Cc1c[nH]c2ccccc12)NC(=O)[C@H](CCC(N)=O)NC(=O)CCCCCNC(=O)CCN(CCNC(=O)c1ccc(F)cc1)CCC(=O)NCCCC[C@@H]1NC(=O)[C@@H](Cc2ccc(O)cc2)NC(=O)[C@H](CC(=O)O)NC(=O)CNC(=O)[C@H](CCCNC(=N)N)NC1=O)C(C)C)C(N)=O [fluorine-18 labelled] — cellular uptake (5 min, 37 °C; reference: added radioactivity): 2.64 ± 0.22%
COc1cc(C)c(OC)c(OC)c1OC — GI50 (cell growth or viability, MTT; 72 h): > 250 µM
COc1ccc(C(c2c(C)nn(-c3ccccc3)c2O)c2c(C)nn(-c3ccccc3)c2O)cc1OC — IC50 (cell growth or viability, MTT; 48 h): 26.6 µM
CCCc1cc(OC)c2c(c1OC)OCO2 — GI50 (cell growth or viability, MTT; 72 h): > 250 µM
CC(C)C12OC1C1OC13C1(C)CCC4=C(COC4=O)C1CC1OC13C2OC(=O)CCCOC1OC(CO)C(O)C(O)C1O (stereo not shown) — IC50 (cell growth, [3H]-thymidine incorporation; 48 h, 20% oxygen normoxia): 0.427 µM

Excerpt of the above:
CSCC[C@H](NC(=O)[C@H](CC(C)C)NC(=O)[C@H](Cc1c[nH]cn1)NC(=O)CNC(=O)[C@@H](NC(=O)[C@H](C)NC(=O)[C@H](Cc1c[nH]c2ccccc12)NC(=O)[C@H](CCC(N)=O)NC(=O)CCCCCCCNC(=O)[C@@H](CO)NC(=O)[C@@H](CO)NC(=O)[C@@H](CCCCNC(=O)Cn1ccnc1[N+](=O)[O-])NC(=O)CN1CCN(CC(=O)O)CCN(CC(=O)O)CCN(CC(=O)O)CC1)C(C)C)C(N)=O [indium-111 labelled] — retained internalized radioactivity (concentration not given, 8 h, hypoxia): 60.7%
CSCC[C@H](NC(=O)[C@H](CC(C)C)NC(=O)[C@H](Cc1c[nH]cn1)NC(=O)CNC(=O)[C@@H](NC(=O)[C@H](C)NC(=O)[C@H](Cc1c[nH]c2ccccc12)NC(=O)[C@H](CCC(N)=O)NC(=O)CNC(=O)[C@H](CO)NC(=O)CNC(=O)CCCCCCCNC(=O)CCC(=O)Nc1ccc(CNC23CNCCNCC(N)(CNCCNC2)CNCCNC3)cc1)C(C)C)C(N)=O [copper-64 labelled] — internalization (15 min; reference: internalization at 2 h): 43%
